Experimental data pooled from the literature.
Each numbered part is a random draw from the data of one study; scales do not carry over between parts.

Sample 1 — method: protein-binding microarray; molecule type: double-stranded DNA, one strand shown; sample: in vitro; tested at: 250 nM; notes: 60-bp whole probe; with: salmon DNA 0.4 mg/ml; baseline: random background probes; direction: higher = stronger binding; shared flanks, not repeated: GCCTAGCAC … GTCTTGATTCGCTTGACGCTGCTG
Target: Interferon regulatory factor 7, full length, phosphomimetic (IRF7, Homo sapiens, UniProt Q92985, residues 1-503, S101K/S471D/S472D/S475D/S476D/S477D/S483D/S484D/S487D)
Target sequence (chain): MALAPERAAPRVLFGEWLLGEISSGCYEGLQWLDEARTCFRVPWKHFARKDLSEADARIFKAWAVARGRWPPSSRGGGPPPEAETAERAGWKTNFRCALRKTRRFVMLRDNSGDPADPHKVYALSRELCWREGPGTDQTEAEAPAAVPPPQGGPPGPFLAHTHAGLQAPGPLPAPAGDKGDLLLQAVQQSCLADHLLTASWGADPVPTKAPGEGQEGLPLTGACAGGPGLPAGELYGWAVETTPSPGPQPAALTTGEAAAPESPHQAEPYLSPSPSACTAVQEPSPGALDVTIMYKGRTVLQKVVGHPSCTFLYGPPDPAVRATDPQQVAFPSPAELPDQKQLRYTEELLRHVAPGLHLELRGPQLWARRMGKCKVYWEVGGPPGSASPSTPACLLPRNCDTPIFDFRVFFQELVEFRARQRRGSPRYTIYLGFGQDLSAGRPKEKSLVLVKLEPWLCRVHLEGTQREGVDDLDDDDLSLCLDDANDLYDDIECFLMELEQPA
Strand | log fluorescence [z-score]
TCATTTATTTATTTTTAACTGTGCTAG | 1.12
GACGGTATCGGTATCGGGATGTGCTAG | 1.45
TGGAGTCTCTGTTCTTTTCAGTGCTAG | 1.21
ACCGCATTCGAATTCAGAATGTGCTAG | 1.3
TCATTTTTCAAGAAACAGACTGTGCTA | 1.23
GACGAACTGGGGACTGGAAACGTGCTA | -0.489
GACGACCTGAGTATCGAGACGTGCTAG | 0.064

Sample 2 — method: protein binding microarray; molecule type: double-stranded DNA, one strand shown; sample: in vitro; tested at: not given; baseline: not given; direction: higher = stronger binding
Target: Histone acetyltransferase KAT6A, winged helix 2, GST fusion (KAT6A, Homo sapiens, UniProt Q92794, residues 85-181)
Notes: 8-mer, flanks averaged, mean of 2 arrays, mostly near background
Target sequence (chain): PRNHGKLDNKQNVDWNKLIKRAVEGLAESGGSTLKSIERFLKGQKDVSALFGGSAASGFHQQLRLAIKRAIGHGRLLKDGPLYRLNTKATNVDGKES
Strand | E-score
CAATTCTA | -0.128
CCCTGTAG | -0.0741
ACCCACGA | 0.103
AAGGAGCG | -0.0851
AGAAGGGG | -0.0329
GGTGCAAC | 0.0634
CAACGCGG | 0.0866
CGTCAAGA | -0.0232
CAGCTGAA | -0.0877
CTCTAAAC | -0.217
ATACGAGA | -0.113
CCGACCCG | 0.148

Sample 3 — method: universal PBM; molecule type: double-stranded DNA, one strand shown; sample: in vitro; tested at: 600 nM; direction: higher = stronger binding
Target: Sal-like protein 4, full length isoform A (SALL4, Homo sapiens, UniProt Q9UJQ4, residues 1-1053)
Chain of UniProt Q9UJQ4 (whole entry, looked up): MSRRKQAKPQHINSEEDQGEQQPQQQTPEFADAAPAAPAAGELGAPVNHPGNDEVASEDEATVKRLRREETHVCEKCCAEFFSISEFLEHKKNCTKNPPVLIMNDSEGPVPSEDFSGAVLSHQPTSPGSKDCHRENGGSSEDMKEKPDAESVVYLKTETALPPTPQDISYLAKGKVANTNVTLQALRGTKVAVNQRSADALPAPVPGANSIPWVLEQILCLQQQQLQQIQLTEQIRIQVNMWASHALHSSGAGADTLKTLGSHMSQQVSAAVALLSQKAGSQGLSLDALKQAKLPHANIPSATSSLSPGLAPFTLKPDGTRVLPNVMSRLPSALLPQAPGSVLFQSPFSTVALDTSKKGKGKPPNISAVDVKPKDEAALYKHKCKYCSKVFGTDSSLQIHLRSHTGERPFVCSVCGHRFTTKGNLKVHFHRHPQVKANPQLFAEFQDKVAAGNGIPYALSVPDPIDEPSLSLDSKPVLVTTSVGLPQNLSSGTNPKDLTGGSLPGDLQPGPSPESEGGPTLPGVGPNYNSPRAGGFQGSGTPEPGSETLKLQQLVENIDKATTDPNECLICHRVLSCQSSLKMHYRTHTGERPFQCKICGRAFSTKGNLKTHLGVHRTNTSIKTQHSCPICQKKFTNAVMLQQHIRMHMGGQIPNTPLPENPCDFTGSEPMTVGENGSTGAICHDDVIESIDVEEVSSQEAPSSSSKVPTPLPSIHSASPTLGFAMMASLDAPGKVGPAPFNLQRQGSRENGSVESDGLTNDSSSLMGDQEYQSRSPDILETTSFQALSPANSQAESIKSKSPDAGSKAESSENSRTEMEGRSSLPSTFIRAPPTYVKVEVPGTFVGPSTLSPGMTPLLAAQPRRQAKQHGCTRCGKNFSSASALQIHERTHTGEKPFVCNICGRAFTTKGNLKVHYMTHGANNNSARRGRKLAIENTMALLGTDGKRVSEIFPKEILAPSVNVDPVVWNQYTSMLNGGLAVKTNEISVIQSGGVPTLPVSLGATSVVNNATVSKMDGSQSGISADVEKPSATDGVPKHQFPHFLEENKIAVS
Notes: 8-mer, flanks averaged, mean of replicates
Strand | E-score
AAAGCCCT | -0.0983
CGAGTTAG | -0.0233
GACAAACC | -0.0416
CGTCCGAC | -0.244
CCTTATCG | 0.161
ATTGACAC | 0.0548
CACACGCC | -0.0864
ACTCGATG | -0.019

Further values, each from its own experiment
Molecule | target | assay | system | conditions | scale | measurement | result
PhoQ, residues 284 288 289 292 302 303 GTAMQF | PhoP, residues 12 14 15 18 19 NHTVL (Escherichia coli, UniProt P23836) | Sort-seq, refers to: YFP reporter | E. coli | PhoQ-PhoP variant library, with: 10 µM Mg2+ | baseline: high Mg2+ state, higher = stronger signaling | fold induction | 1.32

Some of these lines once more (sample 1):
Strand | log fluorescence [z-score]
TGGAGTCTCTGTTCTTTTCAGTGCTAG | 1.21
ACCGCATTCGAATTCAGAATGTGCTAG | 1.3
TCATTTTTCAAGAAACAGACTGTGCTA | 1.23
